Measurements pooled from the literature.
Parts stem from different laboratories: compare values within a part only. Changes are numbered by the printed parent chain.

Sample 1
Target: Fragile X messenger ribonucleoprotein 1, C-terminal low-complexity region (Fmr1, Mus musculus, UniProt P35922)
Technique: RNA Bind-n-Seq
Form: RNA
Sample: in vitro
Concentration: 200 nM
Setting: whole 134-nt RNA, ends assumed
Together with: 150 mM LiCl
Reference: input library
Direction: higher = stronger binding
All molecules: 7-deaza-guanosine replaces G
The log2 enrichment of `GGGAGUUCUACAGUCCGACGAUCUGGGAGGUGGAUUUUGUUUAUUUUUUUAGCUCAUUUCCAGGGGUGGGAAUCUUUUUUUAAUAUGUGUCAUGAAUAAAGUUGUUUUUGAAAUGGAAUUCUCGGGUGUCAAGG` is reported as -0.185.
`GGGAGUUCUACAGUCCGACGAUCGCAGGAAGUAAAAACAAAUGGCAAUGCUUCGGAUAGUGGCAGGGGUGGGGGUUGCUAAGGAAAGGGUGGGAUGGGAGUGGGUAAAGAGUUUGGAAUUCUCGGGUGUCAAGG` has a log2 enrichment of 1.79.
`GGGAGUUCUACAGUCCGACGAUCGCAGGAAGUAAAAACAAAUGGAAAUGCUUCGGAUAGUGGCAGGGGUGGGGGUUGCUAAGGAAAGGGUGGGAUGGGAGUGGGUAAAGAGUAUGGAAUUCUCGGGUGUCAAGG` gave a log2 enrichment of 1.63.
The log2 enrichment of `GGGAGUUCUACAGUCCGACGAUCAGUCCUGUGCUACACAUCGUAUGUACCGAAUCGGGCCCCCGGCCCCCGGGGCCCCCGGAAAGUAUUAUGUUACGCCGUUCGGAUCUGCACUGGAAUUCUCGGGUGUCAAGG` is reported as -2.89.
With `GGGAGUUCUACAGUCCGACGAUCAGUCCUGUGCUACACAUCGUAUGUACCGAAUCGGAAAAAGGAAAAAGGAAAAAAAGGAAAGUAUUAUGUUACGCCGUUCGGAUCUGCACUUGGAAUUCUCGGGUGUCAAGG` the log2 enrichment was -1.74.
`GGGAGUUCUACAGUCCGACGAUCUUACAGAUGUAGAGCUAAAACGACUGAAGGAUGCUUUCAAGAGGACCUGUGGACUCUCAUAUUACAUGGGCCAGCACUGCUUCAUCCGGGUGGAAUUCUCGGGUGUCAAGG` has a log2 enrichment of 1.59.
`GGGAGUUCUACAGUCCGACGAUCUCCUGUGCUACACAUCGUAUGUACCGAAUCGGGGUUUUUUGGUUUUUUGGUUUUUUGGGAAAGUAUUAUGUUACGCCGUUCGGAUCUGCAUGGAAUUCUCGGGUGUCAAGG` gave a log2 enrichment of -0.615.
The log2 enrichment of `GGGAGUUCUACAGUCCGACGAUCUCCUGUGCUACACAUCGUAUGUACCGAAUCGGGGUUUUUGGGGUUUUUGGGUUUUUGGGAAAGUAUUAUGUUACGCCGUUCGGAUCUGCAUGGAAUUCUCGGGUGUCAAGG` is reported as 0.301.
The log2 enrichment of `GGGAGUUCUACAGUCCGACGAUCUCCUGUGCUACACAUCGUAUGUACCGAAUCGGGGUUUGGGGAAAGGGGAAAAAAAGGGGAAAGUAUUAUGUUACGCCGUUCGGAUCUGCAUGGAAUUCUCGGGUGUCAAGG` is reported as -0.542.
`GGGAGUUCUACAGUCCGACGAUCCUGUGCUACACAUCGUAUGUACCGAAUCGGGGUUUUUUGGGGUUUUUUGGGGUUUUUUGGGGAAAGUAUUAUGUUACGCCGUUCGGAUCUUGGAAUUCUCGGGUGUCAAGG` has a log2 enrichment of 1.59.
With `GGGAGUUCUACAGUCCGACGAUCUCAAGUCCUGUGCUACACAUCGUAUGUACCGAAUCGGUUUGGUUUUUUUGGAGGAAAGUAUUAUGUUACGCCGUUCGGAUCUGCACUUCCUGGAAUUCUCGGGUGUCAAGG` the log2 enrichment was -0.0321.

Sample 2
Target: CCNF, cyclin fold, Cln2 fusion (human)
Technique: yeast growth competition, sequencing
Sample: yeast
Setting: strong parent motif
Reference: not given
Direction: higher = stronger binding
Starting sequence: MICAL3 docking peptide (human); LQLRRQLSFSEDS
`LQLRRQLKFSEDS [S8K]`: “normalised enrichment score” 7.98.
`LQLRRQLSFSEWS [D12W]`: “normalised enrichment score” 6.36.
`LQLLRQLSFSEDS [R4L]` — result for “normalised enrichment score”: 0.689.
For `LQGRRQLSFSEDS [L3G]`, “normalised enrichment score” read 4.89.
For `LQLRRKLSFSEDS [Q6K]`, “normalised enrichment score” read 6.61.
`LQLRRDLSFSEDS [Q6D]` — result for “normalised enrichment score”: 0.0587.
For `LDLRRQLSFSEDS [Q2D]`, “normalised enrichment score” read 4.8.
`LQLREQLSFSEDS [R5E]`: “normalised enrichment score” -0.124.
For `LQLRRQLSFFEDS [S10F]`, “normalised enrichment score” read 5.69.
Under “normalised enrichment score”, `LQLRFQLSFSEDS [R5F]` is recorded as 0.336.
For `LQLRRQGSFSEDS [L7G]`, “normalised enrichment score” read -0.161.
For `LQLRRQLSFYEDS [S10Y]`, “normalised enrichment score” read 6.02.
`LQNRRQLSFSEDS [L3N]` — result for “normalised enrichment score”: 1.07.
Under “normalised enrichment score”, `LQLRRQRSFSEDS [L7R]` is recorded as 0.114.
For `LQLRRQKSFSEDS [L7K]`, “normalised enrichment score” read 0.31.
`LQLRQQLSFSEDS [R5Q]`: “normalised enrichment score” 0.29.

Sample 3
Target: ABI1, truncated, D143A, DHFR fusion (Arabidopsis thaliana)
Technique: DHFR PCA, deep sequencing
Sample: yeast
Setting: methotrexate growth selection, single substitutions
Together with: (+)-ABA 200 µM
Reference: wild-type fitted maximum
Direction: higher = stronger binding
Starting sequence: PYL1, truncated, DHFR fusion (Arabidopsis thaliana); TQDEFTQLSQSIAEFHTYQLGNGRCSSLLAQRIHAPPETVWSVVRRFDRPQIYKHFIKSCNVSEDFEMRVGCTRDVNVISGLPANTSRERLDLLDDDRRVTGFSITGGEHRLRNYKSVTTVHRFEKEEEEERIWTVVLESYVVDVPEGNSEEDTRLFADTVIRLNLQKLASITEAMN
Under “relative binding score”, `R163H` is recorded as 81.6%.
For `G21L`, “relative binding score” read 95.4%.
For `T101G`, “relative binding score” read 20.4%.
`R98M` — result for “relative binding score”: 107%.
Under “relative binding score”, `D3Q` is recorded as 103%.
`E147K`: “relative binding score” 93.3%.
For `L93Y`, “relative binding score” read 104%.
`H34L` — result for “relative binding score”: 98.1%.
Under “relative binding score”, `D92I` is recorded as 67.8%.
For `Q7C`, “relative binding score” read 98%.
`N165S` — result for “relative binding score”: 31.3%.
`S117N` — result for “relative binding score”: 41.3%.
For `F15G`, “relative binding score” read 14.6%.
`V44R` — result for “relative binding score”: 36.9%.
Under “relative binding score”, `Q2S` is recorded as 97.3%.
`M176F`: “relative binding score” 89.9%.

Sample 4
Target: Prothrombin, mature alpha-thrombin (F2, Homo sapiens, UniProt P00734)
Technique: aptamer microarray, sandwich
Form: DNA with 2'F-ANA
Sample: in vitro
Concentration: 200 nM
Setting: whole 15-mer aptamer, many near background
Together with: Cy3 exosite-II aptamer, 400 nM
Direction: higher = stronger binding
Strand: GGTTGGTGTGGTTGG
For `2'F-ANA at 1 3 8 9 12 14 15`, “mean fluorescence intensity” read 165 a.u.
`2'F-ANA at 3 4 5 6 7 11 15` — result for “mean fluorescence intensity”: 70.6 a.u.
Under “mean fluorescence intensity”, `2'F-ANA at 1 2 4 7 12` is recorded as 359 a.u.
`2'F-ANA at 1 3 4 7 8 9 12 13`: “mean fluorescence intensity” 286 a.u.
Under “mean fluorescence intensity”, `2'F-ANA at 2 3 4 5 12 13 14 15` is recorded as 73.5 a.u.
`2'F-ANA at 4 5 6 7 8 9 10 14 15` — result for “mean fluorescence intensity”: 51.1 a.u.
`2'F-ANA at 1 2 4 5 6 8 9 13 14 15` — result for “mean fluorescence intensity”: 51.2 a.u.
`2'F-ANA at 2 3 4 8 9 10 12 15`: “mean fluorescence intensity” 281 a.u.
For `2'F-ANA at 1 4 7 11 14`, “mean fluorescence intensity” read 52.8 a.u.
`2'F-ANA at 1 2 6 7 8 9 10 11`: “mean fluorescence intensity” 55.1 a.u.
For `2'F-ANA at 1 2 4 5 9 15`, “mean fluorescence intensity” read 54 a.u.
Under “mean fluorescence intensity”, `2'F-ANA at 2 3 5 6 11` is recorded as 83.8 a.u.
`2'F-ANA at 3 4 5 6 7 8 11 12 13 15`: “mean fluorescence intensity” 115 a.u.
`2'F-ANA at 2 3 7 8 10 12 13 14`: “mean fluorescence intensity” 307 a.u.
For `2'F-ANA at 1 2 4 5 6 7 9 11 12 15`, “mean fluorescence intensity” read 82 a.u.
`2'F-ANA at 1 2 3 4 5 6 7 8 9 11 14` — result for “mean fluorescence intensity”: 56.6 a.u.
For `2'F-ANA at 1 4 5 7 8 10 11 12 13 14`, “mean fluorescence intensity” read 65.3 a.u.
For `2'F-ANA at 1 2 6 7 8 11 12 14 15`, “mean fluorescence intensity” read 69.6 a.u.
`2'F-ANA at 1 2 3 5 7 9 11 12` — result for “mean fluorescence intensity”: 272 a.u.
`2'F-ANA at 1 4 5 10 11`: “mean fluorescence intensity” 60.6 a.u.
For `2'F-ANA at 1 6 8 9 12 14 15`, “mean fluorescence intensity” read 72.1 a.u.
`2'F-ANA at 1 6 7 8 10 11 12 13 14`: “mean fluorescence intensity” 51.1 a.u.
Under “mean fluorescence intensity”, `2'F-ANA at 1 4 5 6 8 9 11 14 15` is recorded as 92.6 a.u.
Under “mean fluorescence intensity”, `2'F-ANA at 5 8 9 11 12 13 15` is recorded as 99.3 a.u.
`2'F-ANA at 4 10 12 13 14 15`: “mean fluorescence intensity” 68.9 a.u.
